Measurements of several laboratories.
Numbered parts are unrelated; each lists some results of a single study.

Series 1
Target: RNA binding protein fox-1 homolog 2, RRM domain, GST-SBP tag (RBFOX2, Homo sapiens, UniProt O43251-10, residues 100-194)
Technique: RNA Bind-n-Seq
Form: RNA
Medium: in vitro
Tested at: 365 nM
Notes: natural RNA segment, single round, ends assumed
Relative to: no-protein control
Reading: higher = stronger binding
Residues (chain): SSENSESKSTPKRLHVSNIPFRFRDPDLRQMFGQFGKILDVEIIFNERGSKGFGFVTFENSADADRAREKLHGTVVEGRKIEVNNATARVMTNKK
Strand | RBNS enrichment (R)
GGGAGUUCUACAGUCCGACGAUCCUGAAAACCUAUUUCUUCUAAAUUACAUGAUUUGGAUUGGUUUUAGGGUUUUAGGGUUGUAGGGUUUCUUUUGGAGAGGUAGGGGGCUAAUUGCUAUGUUCUCAUGGAUAUGGAAUUCUCGGGUGCCAA | 0.586
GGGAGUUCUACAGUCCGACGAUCCUGACAAUGCCUAGGACUGCCUUACUCCCUUCCCUCAGGCCAGUUCCUGGGCCAGCACUAGCCUUGAAUUUGCUCAUCCGCUUGAAACCUACUGGGGGAUGGGGCCCGUGUGGAAUUCUCGGGUGCCAA | 1.15
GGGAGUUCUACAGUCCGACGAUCGUGCCUGUUACAUAGAGAGGCUCCUUCUGUCCAAAUGAAUUUCUGUAUACUCUUCUAUAAAUAAAAGGGAGGAAUAUAUUCUGCUGGAAGCCCAUGAACCAUCGCUGAGGUGGAAUUCUCGGGUGCCAA | 0.302
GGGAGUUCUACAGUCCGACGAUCUGGGGAAGUGAUCUUUUGUUCCCAUCCUCUUCUUUUAGCAGUAAAAUAGCUGAGGGAAAAGGGAGGGAAAAGGAAGUUAUGGGAAUACCUGUGGUGGUUGUGAUCCCUAGUGGAAUUCUCGGGUGCCAA | 0.201
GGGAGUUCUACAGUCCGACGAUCGGGACCCUCCUCAUACAGCUCGUGCGGAUCUGCAGUGUGUUCUGACUCUAAUGUGACUGUAUAUACUGCUCGGAGUAAGAAUGUGCUAAGAUCAGAAUGCCUGUUCGUGGUGGAAUUCUCGGGUGCCAA | 0.776
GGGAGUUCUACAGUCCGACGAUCUUGGAUUCCCAGCACCCACUCAGUGGCCCACAACUAUCCAAUACUCCCGAUGCAUGGGAUCCAGUGCCCUCUUCUGAUCUCUAUGGGCAUCAGGCAUGCACACAGUACACUGGAAUUCUCGGGUGCCAA | 14.1
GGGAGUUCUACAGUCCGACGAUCCAGAUCCACACAGUGUAAAAUACUAUACAACCAAACAUCCGCCUUUACAGGUCGUUAUUCUUCUAAGCAGUAGGUAACUUUUCCUGGGUUUCAUUCUUUCUAGUGUACUAUGGAAUUCUCGGGUGCCAA | 0.354
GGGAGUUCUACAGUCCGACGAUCCUUCUAGGGCUCUGAAUACGGGCUUAAAGUCAUCUUGUCCUGCUGGAAUUUGCUGUGCAGAGCCAUAAGCCUCCCAUUUUGUUAGCGUCAGCUAGGCCAAUAGGAACAGAUGGAAUUCUCGGGUGCCAA | 0.309

Series 2
Target: Phosphate system positive regulatory protein PHO4, full length, GST-tagged (PHO4, Saccharomyces cerevisiae, UniProt P07270, residues 1-312)
Sequence of UniProt P07270 (whole entry, looked up): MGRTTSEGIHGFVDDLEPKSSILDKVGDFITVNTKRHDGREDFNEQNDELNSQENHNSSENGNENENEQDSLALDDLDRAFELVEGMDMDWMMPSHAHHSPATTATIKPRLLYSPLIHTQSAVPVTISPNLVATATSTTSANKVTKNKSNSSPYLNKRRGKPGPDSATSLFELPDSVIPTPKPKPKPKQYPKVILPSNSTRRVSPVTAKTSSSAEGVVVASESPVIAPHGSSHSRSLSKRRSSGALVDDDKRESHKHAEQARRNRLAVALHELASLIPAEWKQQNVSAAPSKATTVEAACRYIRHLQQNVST
Technique: competition protein-binding microarray
Form: double-stranded DNA, one strand shown
Medium: in vitro
Tested at: 2 µM
Notes: whole 60-bp probe, lowest competitor level
Added: Cbf1 competitor, 0.05 µM
Reading: higher = stronger binding
Strand | fluorescence intensity [a.u.]
TGATGACCAAGTTGCCACGTGTCCTCTAGTGGCAGGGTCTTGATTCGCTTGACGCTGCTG | 16900
CTTTCCCGATCTTGGTAGGTGGGTGTAGCACATTTGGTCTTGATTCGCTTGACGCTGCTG | 5040
CGGGGTTAAGTTTGATACGTGGGTGGCTTGCAGCAGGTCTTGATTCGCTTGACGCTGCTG | 7210
CTAACGAAGGTTTGTCACATTACTTACAAGCCAAGTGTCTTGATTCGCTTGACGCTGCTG | 4450
CTATACCTGACGGTCCACGGGGTTGGCAGCCCGGTCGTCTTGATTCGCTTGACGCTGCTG | 7970
TGCGCAACAACTTGGTATGTGGGTGTATGTCTAGAAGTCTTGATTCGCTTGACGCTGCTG | 5790
CAGCATTGCTACAGACACGTGAGTAATGCATTGTGTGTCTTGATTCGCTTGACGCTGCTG | 14900
AGCGAACTCGCTCGAAGCGTGCCGACCAGCTCCCGGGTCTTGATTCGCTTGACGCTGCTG | 7510
TTGACGTTGCATATCAACGTGCCAGATCCCGGAATAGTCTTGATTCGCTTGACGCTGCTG | 12000
TGAGCGCTGAAGAAACACATGACGACTTGAAAAAAGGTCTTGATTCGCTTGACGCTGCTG | 7290
CGGGGTTAAGTTTTTCACGTGGCCTGCTTGCAGCAGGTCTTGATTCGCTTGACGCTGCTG | 13100
CGGGGTTAAGTTTGTAAAGTGGGTGGCTTGCAGCAGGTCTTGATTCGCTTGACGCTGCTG | 4810
CGGGGTTAAGTTTGAACGGTGGGTGGCTTGCAGCAGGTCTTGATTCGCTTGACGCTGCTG | 4800
ACCATCACAATTCGTCACGTGCAAATTAGTCCAGTCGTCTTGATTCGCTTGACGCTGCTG | 15300
GGCAATATCAGTACCCACGTAACCGTGTGTTTCAGCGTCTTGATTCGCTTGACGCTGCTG | 7760
CTTCTGTAAATTTGCTCAGTGGGTGGACGCGCCCCGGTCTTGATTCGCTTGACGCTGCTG | 4180
CTTTCCCGATCTTTTCACGTGCGGTTAGCACATTTGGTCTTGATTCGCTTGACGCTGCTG | 14600
TACCACCACCAAGAGAATGTGTGAGCTGGAAACCTTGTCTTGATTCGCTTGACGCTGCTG | 4960
TTGCTGCGATTGCTGCTCGTGAAACGGAAAAAGCTAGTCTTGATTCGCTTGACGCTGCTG | 4430

Series 3
Target: Sal-like protein 4, full length isoform B (SALL4, Homo sapiens, UniProt Q9UJQ4-2, residues 1-616)
Technique: universal PBM
Form: double-stranded DNA, one strand shown
Medium: in vitro
Tested at: not given
Notes: 8-mer, flanks averaged, mean of replicates
Reading: higher = stronger binding
Strand | E-score
ACGCCTAG | 0.00161
AAGAGCAT | 0.127
ATACCACG | 0.0808
CGTGTTAA | 0.148
GTTGCCTA | -0.0413
AGGTCGAT | -0.0512
AATTTTCG | 0.32
CGTCGGAG | -0.189
AACCACTT | 0.0633
CAACTGGG | -0.327
ACCGGTCA | -0.179
GTTGAAAA | 0.144
CATTAATA | 0.399
TACGTGAA | 0.0775
GCCGGCTA | -0.182
GAAGAGCC | -0.239
ACGTCCCA | -0.0342
CGGCCATC | -0.293
CGTTTGCC | -0.165
GTCGCTTA | -0.0605
CACACAGC | -0.0905
GGAACCAA | -0.18
CTTCACTA | 0.144
CTAGCCAG | -0.126
CCCTAGCG | -0.254

Series 4
Target: Interferon regulatory factor 7, full length, phosphomimetic (IRF7, Homo sapiens, UniProt Q92985, residues 1-503, S101K/S471D/S472D/S475D/S476D/S477D/S483D/S484D/S487D)
Technique: protein-binding microarray
Form: double-stranded DNA, one strand shown
Medium: in vitro
Tested at: 250 nM
Notes: 60-bp whole probe
Added: salmon DNA 0.4 mg/ml
Relative to: random background probes
Reading: higher = stronger binding
All sequences stand within: GCCTAGCAC … GTCTTGATTCGCTTGACGCTGCTG
Construct (chain): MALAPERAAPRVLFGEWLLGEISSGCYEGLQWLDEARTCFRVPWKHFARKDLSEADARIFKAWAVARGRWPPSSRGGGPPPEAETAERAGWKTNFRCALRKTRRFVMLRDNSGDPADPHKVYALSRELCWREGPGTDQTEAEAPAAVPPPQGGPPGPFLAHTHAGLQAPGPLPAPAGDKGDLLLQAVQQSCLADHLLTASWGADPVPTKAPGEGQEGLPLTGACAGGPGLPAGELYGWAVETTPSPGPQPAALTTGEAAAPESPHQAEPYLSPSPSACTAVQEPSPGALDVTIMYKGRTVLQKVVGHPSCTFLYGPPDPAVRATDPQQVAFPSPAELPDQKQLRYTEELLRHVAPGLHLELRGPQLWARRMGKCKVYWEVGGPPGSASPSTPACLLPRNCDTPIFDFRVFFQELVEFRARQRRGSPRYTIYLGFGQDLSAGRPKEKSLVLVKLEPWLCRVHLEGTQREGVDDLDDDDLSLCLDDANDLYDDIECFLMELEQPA
Strand | log fluorescence [z-score]
TTAGGTATCCTACTGCTTAAGTGCTAG | 0.372
TTAGGACTGGGGCTGGGTTAGTGCTAG | -0.324
TTAAAACTGAGTCTCGATTAGTGCTAG | 1.49
GTCGGTATCCTACTGCTGACGTGCTAG | 0.268
GACGATACCGGGACTGGAGACGTGCTA | -0.242
ATTTAAAACAACTTTCAAAGGGTGCTA | 0.228
TGTCCTTTCACTTTAACTTAGTGCTAG | 1.8
CCTAGTTTTACTTTCTATGTGTGCTAG | 2.08
GACGGTATTGGTCTCGGGACGTGCTAG | 0.386
GACCGTTTCGGTATCGGGACGTGCTAG | 5.65
TTAGGTCTCGGTATCGGTTTGTGCTAG | 5.16
TCATTTTTCCCTCTGGAAAAGTGCTAG | 1.91
TTAGATTTCGGCTATCGATTAGTGCTA | 0.44
GACGGACTGGGACTGGCGACGTGCTAG | -0.601
CCTCTTCTGGATCTCAGACTGTGCTAG | 0.754
TGAAAATTAGTGTTTGCCCTAGTGCTA | -0.325
GACGATTTCTGGTATCGAGACGTGCTA | 0.424
GACGATATCAGACAGGAGACGTGCTAG | -0.006
TTAGATATCGGGAATGGATTAGTGCTA | -0.183
